{"data": "Measured values of several laboratories", "note": "Parts stem from different laboratories: compare values within a part only."}
{"data": "Sample 1", "target": "Sal-like protein 4, full length isoform B (SALL4, Homo sapiens, UniProt Q9UJQ4-2, residues 1-616)", "technique": "universal PBM", "molecule type": "double-stranded DNA, one strand shown", "matrix": "in vitro", "tested at": "not given", "notes": "8-mer, flanks averaged, mean of replicates", "direction": "higher = stronger binding"}
{"Oligonucleotide": "TGCTGTAA", "E-score": 0.157}
{"Oligonucleotide": "CCGATCGC", "E-score": -0.129}
{"Oligonucleotide": "CGACACGC", "E-score": -0.133}
{"Oligonucleotide": "GAACATCA", "E-score": 0.0711}
{"Oligonucleotide": "GTACAGGA", "E-score": -0.0907}
{"Oligonucleotide": "ACGTTTCT", "E-score": 0.0573}
{"Oligonucleotide": "AGATGCTG", "E-score": -0.0556}
{"Oligonucleotide": "AGATTGCC", "E-score": -0.0569}
{"Oligonucleotide": "GCCAAGGC", "E-score": -0.239}
{"Oligonucleotide": "CTGGCGCC", "E-score": -0.347}
{"Oligonucleotide": "AAGAGGCC", "E-score": -0.225}
{"Oligonucleotide": "AATTTGCA", "E-score": 0.139}
{"Oligonucleotide": "CGCCCCTC", "E-score": -0.461}
{"Oligonucleotide": "GCTCGTCC", "E-score": -0.212}
{"Oligonucleotide": "CACCCCTA", "E-score": -0.176}
{"Oligonucleotide": "TGTATTAA", "E-score": 0.337}
{"Oligonucleotide": "CCTCTGCG", "E-score": -0.311}
{"Oligonucleotide": "AATCAATG", "E-score": 0.237}
{"Oligonucleotide": "GACTGAGC", "E-score": -0.288}
{"Oligonucleotide": "TCCTATAA", "E-score": 0.278}
{"Oligonucleotide": "ATACAGAC", "E-score": 0.215}
{"Oligonucleotide": "CCAGGACA", "E-score": -0.194}
{"Oligonucleotide": "CCTTTACC", "E-score": -0.102}
{"Oligonucleotide": "AACCAGGT", "E-score": -0.138}
{"Oligonucleotide": "AAGGAACG", "E-score": -0.0275}
{"data": "Sample 2", "target": "Histone acetyltransferase KAT6A, winged helix 2, GST fusion (KAT6A, Homo sapiens, UniProt Q92794, residues 85-181)", "technique": "protein binding microarray", "molecule type": "double-stranded DNA, one strand shown", "matrix": "in vitro", "tested at": "not given", "notes": "8-mer, flanks averaged, mean of 2 arrays, mostly near background", "relative to": "not given", "direction": "higher = stronger binding", "Construct (chain)": "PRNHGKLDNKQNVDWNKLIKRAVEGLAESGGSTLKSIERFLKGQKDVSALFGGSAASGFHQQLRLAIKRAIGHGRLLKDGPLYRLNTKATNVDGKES"}
{"Oligonucleotide": "ATCTGTTC", "E-score": -0.137}
{"Oligonucleotide": "CCCCTGGA", "E-score": 0.00844}
{"Oligonucleotide": "AACCCCAC", "E-score": -0.0933}
{"Oligonucleotide": "CTACAGCA", "E-score": 0.138}
{"Oligonucleotide": "AAGCTTCC", "E-score": -0.0267}
{"Oligonucleotide": "ATAGCCCA", "E-score": -0.0248}
{"Oligonucleotide": "CTAAAAAC", "E-score": 0.0327}
{"Oligonucleotide": "ATTTTCTC", "E-score": 0.0656}
{"Oligonucleotide": "GCTAAGAA", "E-score": 0.0194}
{"Oligonucleotide": "GCCATGTA", "E-score": -0.156}
{"Oligonucleotide": "TCGAGACA", "E-score": 0.0459}
{"Oligonucleotide": "ACGACCAC", "E-score": -0.119}
{"Oligonucleotide": "AATAGGAC", "E-score": -0.231}
{"Oligonucleotide": "AGTTACGC", "E-score": -0.12}
{"Oligonucleotide": "TGTTTTAA", "E-score": 0.21}
{"Oligonucleotide": "AATGAGCT", "E-score": -0.0416}
{"Oligonucleotide": "CGATATGA", "E-score": -0.0954}
{"Oligonucleotide": "ACACACGC", "E-score": -0.0663}
{"Oligonucleotide": "AGCCATTG", "E-score": 0.0141}
{"Oligonucleotide": "CCGATGCG", "E-score": 0.178}
{"Oligonucleotide": "CCTGATAC", "E-score": 0.0756}
{"Oligonucleotide": "CCGATATA", "E-score": -0.119}
{"Oligonucleotide": "ACCCGCAC", "E-score": 0.0923}
{"Oligonucleotide": "AACCATCT", "E-score": -0.104}
{"Oligonucleotide": "ATCTGTAA", "E-score": -0.244}
{"data": "Sample 3", "target": "RNA binding protein fox-1 homolog 2, RRM domain, GST-SBP tag (RBFOX2, Homo sapiens, UniProt O43251-10, residues 100-194)", "technique": "RNA Bind-n-Seq", "molecule type": "RNA", "matrix": "in vitro", "tested at": "365 nM", "notes": "natural RNA segment, single round, ends assumed", "relative to": "no-protein control", "direction": "higher = stronger binding", "constant ends, left off below": "GGGAGUUCUACAGUCCGACGAUC … UGGAAUUCUCGGGUGCCAA", "Construct (chain)": "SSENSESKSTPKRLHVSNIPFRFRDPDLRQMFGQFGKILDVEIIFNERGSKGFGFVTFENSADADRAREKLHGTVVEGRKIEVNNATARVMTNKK"}
{"Oligonucleotide": "GAUCUCUUUGGCAAUUGUUCUCUGCCAGAGUCUUAAGUAUGUGUCUUUGAUACUCCUUGAAAAUUAAAACUAAGUACACCCUAUUGCUCUUCAGCUCCCAGAAACUUACG", "RBNS enrichment (R)": 1.24}
{"Oligonucleotide": "CACAAACAUCAGCAAAACUUUGCCUCCCAAGAUAUAAAACCUAGAAACAGACCUGUGUUCCACCCUCUGCAAGAUAAUGUCCAACUACCAAGGUGAUGUUAAGGGCAUAG", "RBNS enrichment (R)": 0.376}
{"Oligonucleotide": "CAGAUGUUAAGGUACAACUGUGUUUUUCUCGAUUAUCUAAAAACCAUAGUACUUAAAUUGAACAGUUGCAAAGAUGUCUUAAUUGUGUAAAGAAUUGGUGUAGUCAUGAC", "RBNS enrichment (R)": 0.596}
{"Oligonucleotide": "UAAGUGGAGUAUUUUAGUCUAAAGGCUUUUCAAAUUACUUGAAUUUUUUUAAAAAUUGAGGAGCUUUAUUUCUAUUUACCCUUCCAUUUUUGUAUAUCAAAUUUCCAUUG", "RBNS enrichment (R)": 0.666}
{"Oligonucleotide": "UACUCAGAUUGACCAUAUGGGUUUUUUCUUUUUCUUUCUUUUAUUCUUCUCCUUCUUUUUUUUUCAGAGGUGGGAUGGGUGGAGAUUUUUUAAAAAUCCCACGUGUGAAA", "RBNS enrichment (R)": 0.422}
{"Oligonucleotide": "UCAUCUAGCUUUUCAUUCUUUAAGUAAGGGGGAAAAAAUCACUAAACAAUAAAGUUGGCUAGACCUUGUUUGGGGAAUUUUACAAAUUUUAUAAACUAUCUGUAGCAAUU", "RBNS enrichment (R)": 0.519}
{"Oligonucleotide": "AAUAAAUCUGGACAAUGCCGUUAGCGAAGAGCCCUUCCUGGUGAAGGCAAACCCAUGGUCACAGCAGGCCAUUUAGAGACUGAGUGGGCGGGGCACUUACCAUCCCUUCC", "RBNS enrichment (R)": 0.266}
{"Oligonucleotide": "UGCCAGUGGCCCCCAGACUGUGGGGUUGGGACGCCUGGCCUCUGUGUCCUAGAAGGGACCCUCCUGUGGUCUUUGUCUUGAUUUUUCUUAAUAAACGGUGCUAUCCCCGC", "RBNS enrichment (R)": 0.727}
{"Oligonucleotide": "AUAAGAGUUUUCAGAGAUUUCAUAUAUAUUAUAUAUCUUUUACAGAGACUAUUUUAAUCCUUAGCGCAUGGGUCCCGCUUUUGGUGAUAUUUUCACAUUAGGUUGCUGUC", "RBNS enrichment (R)": 1.04}
{"Oligonucleotide": "UUCCCGAGAGCAGCAGACAUGGAGGGCCAGACUUUAAAAGCAACGCAAGCAGAUUCGAAGAGCUGUUGCCCUCUUCUAAAAAAGGCUUUUGGAGGCUGUGUUACAUGCAU", "RBNS enrichment (R)": 1.85}
{"Oligonucleotide": "GCAAAAUAGAAUUAAGCAAUGGGUAAGCAAAAUAGGGUUGACAAGAUAUUUGGGGGUUAUUCGGGUUAUGGCCCAUUUAUUUCCCUCUUCCCCCUGAAUUGACCAGUAGC", "RBNS enrichment (R)": 2}
{"Oligonucleotide": "GGAGAUCAAACAUCAAUCAUCCCUGUCCAUCAGGUCAUUGAUAAGGUCAAGGGUUAUUGCAAUGCUCAUUCAGACAACUUCUAUAAAAAUAUUAUCAUGUCAGACACCUU", "RBNS enrichment (R)": 0.441}
{"data": "Sample 4", "target": "Hepatocyte nuclear factor 3-alpha (Foxa1, Mus musculus, UniProt P35582, residues 1-468, full length assumed)", "technique": "EMSA with sequencing", "molecule type": "double-stranded DNA, one strand shown", "matrix": "in vitro", "tested at": "10 and 20 nM", "notes": "whole designed probe, mean of two concentrations, ends assumed", "relative to": "negative control set to 0", "direction": "higher = stronger binding", "constant ends, left off below": "GTGAGCGGTGCCCATTGATGGGGAAC … TTTCACTGGGATCGTGGGGAC", "Target sequence (chain)": "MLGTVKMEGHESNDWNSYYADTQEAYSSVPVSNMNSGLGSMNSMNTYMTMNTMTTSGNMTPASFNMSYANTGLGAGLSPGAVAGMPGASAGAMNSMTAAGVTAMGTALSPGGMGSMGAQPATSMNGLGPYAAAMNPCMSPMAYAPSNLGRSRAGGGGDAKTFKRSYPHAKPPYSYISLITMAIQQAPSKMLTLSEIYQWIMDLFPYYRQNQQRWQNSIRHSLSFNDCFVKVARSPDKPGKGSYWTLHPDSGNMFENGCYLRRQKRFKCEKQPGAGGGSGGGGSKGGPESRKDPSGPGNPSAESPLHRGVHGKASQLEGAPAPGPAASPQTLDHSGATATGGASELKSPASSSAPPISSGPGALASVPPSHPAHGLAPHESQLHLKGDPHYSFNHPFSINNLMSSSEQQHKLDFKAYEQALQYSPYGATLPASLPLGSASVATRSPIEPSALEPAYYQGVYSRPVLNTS"}
{"Oligonucleotide": "CAATGCCACTTTAAAAAATATAAACAGGCCGAATGCCAACTGAGATAGTGACTACTGCTGTAACAAACCTTGGTAAATAGTGAGCAATACTAAAGTAAATAGCACTTGTGGATAAAAGTTTGACATCAATTCCGTTGGCTACATTTTTCATAAATTATCATCTATAATAAAAGTCATTCTGCTATATTACTTT", "normalised bound fraction [ratio]": 0.425}
{"Oligonucleotide": "ACTGCTCCTGCAAAGCCATGCGCTCCAGTGGAATTTACAAGAATGTGAAAGTTCAGCAATACTAAAATTATCTCTCACTTCCTATAGATTAGCTTGTTTACTTTGAGATTTCCTTAAAATTCGACCCCCAAGTTGACTTGGCTAACCTTTCTACCATTTACTCAGCTTGAAAGTTTATGCCATATCTCGAAAC", "normalised bound fraction [ratio]": 0.244}
{"Oligonucleotide": "ATAAATGAGATTCTTTGAATCTACATAACTGGTCAAGATAATAAATGCATTAGGAATTCCCAGAGGATAGGCAGTTTGGGACTGAGATCACTGTGTAAACATGAAGATGCAGGTTGAAGTAGACTTTTATTAAAATTTGAGCTAAAGTGGATAAGGTTCAGATAGACTACAGTATGGGGTGGACACTGTATTA", "normalised bound fraction [ratio]": 0.457}
{"Oligonucleotide": "CCTTGTATTCTTCAGATCTCATTTTCCCCCAAATTTCTGCAGTGGTTGGCTTCCATTTCAGCATCAGTCACGAAATCTTGAAGGTCAGACACAGTAAACAGGGAAGGACATAAAATTAAGTGATTTGGGCGTAGTTTTGAGTCTCACAACTTTAACAGGGATGAGTCATACATTAAAGTATGTCGAAATAAAT", "normalised bound fraction [ratio]": 0.0674}
{"Oligonucleotide": "CAGCCTGCAGTGCGCTCAGTTAAACAATTCCAAATCAAGGAATTTTGTCTGATACAAGGAATTTGGGGTGTGTTTTCCTAACATGCACCCTGGGTAAATAGACTGCATTTCCTGACCCAGCTGAGGGGGGGGGGCAGCCAATATGCATTGCGGCCACAAGGTGGCGCGTCTGGGCCTGGCAAACCCCTGTGCT", "normalised bound fraction [ratio]": 0.234}
{"Oligonucleotide": "GCTCCTCACCCCCAACTGGGGGCCTGAGTAGGGACAGCACAGAGGCTGGTGCCTGCTGCTCTTCAGTCTCTGTTTCCACGGCTCAAACCAAAGTAATCTACAGAATGGCCATGTAGGTGCAAAGTACCAATGACAGCATGGACCCTTGGGTGGGCTCCAACACTCACCCTAATAAAGCTGGGGAGGAAGGGGC", "normalised bound fraction [ratio]": -0.0811}
